Measurements collected from several papers.
Every numbered part comes from another study and shows a few of its results, in no order. Positions count from the first letter of the parent shown.

Series 1
Target: Histone acetyltransferase KAT6A, winged helix 2, GST fusion (KAT6A, Homo sapiens, UniProt Q92794, residues 85-181)
Technique: protein binding microarray
Form: double-stranded DNA, one strand shown
Matrix: in vitro
Tested at: not given
Setting: 8-mer, flanks averaged, mean of 2 arrays, mostly near background
Reference: not given
Reading: higher = stronger binding
Endpoint: E-score
Target sequence (chain): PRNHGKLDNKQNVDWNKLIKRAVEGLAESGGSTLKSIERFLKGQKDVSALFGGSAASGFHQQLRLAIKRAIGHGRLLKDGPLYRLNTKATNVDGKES
CATTTTCG: -0.0334
ATAATAAC: -0.139
CAGACCAC: -0.00621
ATGGACTA: -0.178
ACGGTTAG: -0.182
CGCCCACA: 0.219
GCCGCTCA: -0.0404
AAATAAAT: 0.0899
ATGATGTA: -0.00079
GCACGCCA: 0.0213
GTGATCTA: 0.134
ACTCCCAG: -0.122
CGTTTGAC: -0.0468
CGTAGAAC: 0.000105
GTTTGCTA: 0.143
ATTTTGTG: 0.148
CTTCTCCA: -0.118
GGGCCACC: 0.248
GGGTAGAC: -0.162
ATCGTGCA: 0.05

Series 2
Target: Interferon regulatory factor 7, full length, phosphomimetic (IRF7, Homo sapiens, UniProt Q92985, residues 1-503, S471D/S472D/S475D/S476D/S477D/S483D/S484D/S487D)
Technique: protein-binding microarray
Form: double-stranded DNA, one strand shown
Matrix: in vitro
Tested at: 2200 nM top
Setting: 60-bp whole probe
Added: salmon DNA 0.4 mg/ml
Reference: random background probes
Reading: higher = stronger binding
Endpoint: fitted relative affinity
Constant ends, left off below: GCCTAGCAC … GTCTTGATTCGCTTGACGCTGCTG
Construct (chain): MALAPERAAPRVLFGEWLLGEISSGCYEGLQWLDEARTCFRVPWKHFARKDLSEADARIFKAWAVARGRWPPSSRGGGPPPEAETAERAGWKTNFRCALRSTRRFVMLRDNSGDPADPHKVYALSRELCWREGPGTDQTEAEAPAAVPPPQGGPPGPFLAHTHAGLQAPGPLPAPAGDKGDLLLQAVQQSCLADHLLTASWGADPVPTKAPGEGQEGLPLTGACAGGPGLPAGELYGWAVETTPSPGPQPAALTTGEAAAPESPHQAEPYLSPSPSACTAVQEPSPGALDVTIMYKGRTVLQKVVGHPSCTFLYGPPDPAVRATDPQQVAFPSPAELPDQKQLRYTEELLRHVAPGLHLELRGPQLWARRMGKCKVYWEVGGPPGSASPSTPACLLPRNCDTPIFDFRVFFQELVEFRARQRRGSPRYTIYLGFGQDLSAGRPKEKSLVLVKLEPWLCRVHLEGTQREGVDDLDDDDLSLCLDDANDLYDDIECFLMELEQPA
TTAGGTATCGGGACGGGGTTAGTGCTA: 0.0833 z-score
TTAGGTTTCGGTATCGGTGAGTGCTAG: 7.66 z-score
TTATGACTGGACTATCGGTTAGTGCTA: 0.226 z-score
TCATCTCTGCTTGTGTCACTGTGCTAG: 1.67 z-score
TCATATCTAAGATTCTAACTGTGCTAG: 0.585 z-score
GACGGTTTCGTTTTCGGGACGTGCTAG: 12.5 z-score
GACGGTCTCGGATTCGGGACGTGCTAG: 0.654 z-score
GACGGACTGCTAATGCTGACGTGCTAG: -0.32 z-score
GACGGTATCGACTTTCGCGACGTGCTA: 1.52 z-score
GACGGTTTCGGTTTCGAGACGTGCTAG: 14.4 z-score
GACGATTTCGGGTTTAGAGACGTGCTA: 3.91 z-score
GACGGTATCGGGACTCGGGACGTGCTA: -0.292 z-score
TTAGATCTCTGTTTCGATTAGTGCTAG: 3.71 z-score
TCAGGTTTACCAGATCATACTGTGCTA: 0.461 z-score
TTAGGACTGGACAGTGGGTTAGTGCTA: -0.538 z-score
GACGGTTCCCTTTTCTTGACGTGCTAG: 2.23 z-score
TTAGGACTGGCCACTGGGTTAGTGCTA: -1.1 z-score
GACGGAATGGGGTATCGGGACGTGCTA: -0.298 z-score

Series 3
Target: RNA binding protein fox-1 homolog 2, RRM domain, GST-SBP tag (RBFOX2, Homo sapiens, UniProt O43251-10, residues 100-194)
Technique: RNA Bind-n-Seq
Form: RNA
Matrix: in vitro
Tested at: 365 nM
Setting: natural RNA segment, single round, ends assumed
Reference: no-protein control
Reading: higher = stronger binding
Endpoint: RBNS enrichment (R)
Constant ends, left off below: GGGAGUUCUACAGUCCGACGAUC … UGGAAUUCUCGGGUGCCAA
Target sequence (chain): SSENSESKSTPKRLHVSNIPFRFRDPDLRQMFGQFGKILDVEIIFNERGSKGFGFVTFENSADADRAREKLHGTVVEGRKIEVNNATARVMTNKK
UGUACAAUGCCUUUUAAACCUUCCCCUUUUUCCAUACUUCCCAUAGGGCAUUUGUAGAAUUAGUGACCCACUGCAUGUCUGUCCCCAAGGCCGGGAAAAGAGACAGGCAG: 0.862
AUUGUGGACAGUAAUACGCAGUUACAGGGUGUAGUCUGUUUAGAAUCCGUAGUUUGUGGGUAUCAGUUGCGGUAGAGAUGCAACAUUUGUGACUCUGUUGCUAACGGUUA: 0.471
GGAGCCCUUGAGAAGUUUAUCUAUGACUAUGAAACUGGCAACGUCACCCCAGAAUUACGGUCAGCCUUAUUCCCCUUCACCUCCCAGUGAACGCUAAGAAGUUUCAGACA: 0.417
AUUUUAAAUACUCUACUUACAGUUGGCCCUCUGUGGUUAGUUCCACAUCUGUGGAUUCAACCAACCAAGGACGGAAAAUGCUUAAAAAAUAAUACAACAACAACAAAAAA: 0.599
GGGCCAGAUAGAUAGGUCCUAGCAGAAGGCAUUGAGGUGAGGGAUCAUUUUGGGUCAGACAUCAAUGUCCCUGUCCCCCCUGGGUCCAGCCAAGCUGUGCCCCAUCCCCC: 0.303
UCACUGGCCCUACAACUGCCUUAGAGGAGUCAGCUGUCCAGUUUUAGAUCCCAGGAGUCACAGCAGAGCCUUGCAGUCAUUUCACAUGCGCAGACUCUGGAGAGAGCAAA: 0.297
UCUGCCUUAGGCUGCUGGGAGAUGCCAUUCUCCAGUUUCAGAAGCAGGCAGGGCAAAGGUCAAGACUGUGGUAUUGGGGUCUUUUGGCUCUGAAGGAUCCUGGAACCACU: 0.283
AAAAAAACAUAUAAGCAAAUUGAAGCAUGAACGUGGAUUGUAUUUAAGACAUAUACAAAGACAAAUGACAGCAAUUCAUGGUUCAAGUAUAAAGCAGUUCAUUCUACCAA: 2.25

Series 4
Target: Sal-like protein 4, full length isoform A (SALL4, Homo sapiens, UniProt Q9UJQ4, residues 1-1053)
Chain of UniProt Q9UJQ4 (whole entry, looked up): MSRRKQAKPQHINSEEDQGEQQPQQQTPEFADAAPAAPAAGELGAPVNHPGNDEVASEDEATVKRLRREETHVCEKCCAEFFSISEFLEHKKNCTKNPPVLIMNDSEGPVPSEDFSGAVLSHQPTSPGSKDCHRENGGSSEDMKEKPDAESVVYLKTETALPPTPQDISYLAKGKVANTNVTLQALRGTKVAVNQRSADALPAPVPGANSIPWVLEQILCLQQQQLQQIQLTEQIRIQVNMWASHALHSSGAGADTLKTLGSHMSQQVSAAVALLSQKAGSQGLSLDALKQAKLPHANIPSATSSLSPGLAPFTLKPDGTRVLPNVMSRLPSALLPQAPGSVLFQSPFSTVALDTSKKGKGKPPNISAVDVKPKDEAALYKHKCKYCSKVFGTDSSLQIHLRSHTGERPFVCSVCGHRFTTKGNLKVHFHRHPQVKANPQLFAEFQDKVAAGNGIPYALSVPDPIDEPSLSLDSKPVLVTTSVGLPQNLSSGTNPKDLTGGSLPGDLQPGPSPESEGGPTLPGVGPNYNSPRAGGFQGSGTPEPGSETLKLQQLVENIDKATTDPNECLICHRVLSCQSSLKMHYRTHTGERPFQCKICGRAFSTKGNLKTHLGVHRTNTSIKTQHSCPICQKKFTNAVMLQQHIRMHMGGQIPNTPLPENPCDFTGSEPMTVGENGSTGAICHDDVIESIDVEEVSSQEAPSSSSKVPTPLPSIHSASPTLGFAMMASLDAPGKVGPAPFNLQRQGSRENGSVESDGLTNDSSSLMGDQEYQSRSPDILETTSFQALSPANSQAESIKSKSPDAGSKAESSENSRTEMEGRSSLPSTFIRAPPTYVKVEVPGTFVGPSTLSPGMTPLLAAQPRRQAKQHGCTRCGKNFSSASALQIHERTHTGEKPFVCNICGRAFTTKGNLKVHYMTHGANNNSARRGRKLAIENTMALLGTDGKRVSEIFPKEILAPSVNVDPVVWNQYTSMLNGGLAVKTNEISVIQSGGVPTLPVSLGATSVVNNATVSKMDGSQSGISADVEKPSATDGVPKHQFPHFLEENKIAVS
Technique: universal PBM
Form: double-stranded DNA, one strand shown
Matrix: in vitro
Tested at: 600 nM
Setting: 8-mer, flanks averaged, mean of replicates
Reading: higher = stronger binding
Endpoint: E-score
ACTCAGAA: 0.0953
ACATACGG: -0.013
GCAAACTA: 0.0497
AACATTGC: 0.0611
CATTCATC: 0.121
GACTTAAA: 0.111
ATCGAGCA: -0.0699
CCCCGGCC: -0.366
AGTACACA: 0.0958
AAGGTCCA: -0.0661
ATCTCTAA: 0.117
AAGCTAGG: -0.277
CCAAGAGG: -0.226
GAAAGATA: 0.224
AAAGCGAT: 0.102
GGTCGTAC: -0.239
ACGCAAGC: -0.0375
CGTTCAGC: -0.176
CATACTGC: -0.0626
ACCGGGGC: -0.456
CAATATGC: 0.184

Series 5
Target: CCND2, cyclin fold, Cln2 fusion (human)
Technique: yeast growth competition, sequencing
Matrix: yeast
Setting: weak parent motif
Reference: not given
Reading: higher = stronger binding
Endpoint: normalised enrichment score
Parent: CDAN1 docking peptide (human); RGARSQLFPPTEA; partner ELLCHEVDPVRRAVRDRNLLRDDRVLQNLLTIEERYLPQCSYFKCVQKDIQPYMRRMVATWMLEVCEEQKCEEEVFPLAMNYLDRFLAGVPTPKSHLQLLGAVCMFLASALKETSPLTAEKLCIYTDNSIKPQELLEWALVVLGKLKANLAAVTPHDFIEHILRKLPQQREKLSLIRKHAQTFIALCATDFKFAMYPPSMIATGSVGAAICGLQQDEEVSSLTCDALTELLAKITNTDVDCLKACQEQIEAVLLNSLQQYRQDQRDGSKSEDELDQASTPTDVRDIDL
S5A: 0.203
L7A: 0.098
F8A: 0.131
R1A: -0.0608
Q6A: -0.541

Excerpt of the above (series 4):
AAGCTAGG: -0.277
CCAAGAGG: -0.226
GAAAGATA: 0.224
AAAGCGAT: 0.102
GGTCGTAC: -0.239
ACGCAAGC: -0.0375
CGTTCAGC: -0.176
